Published values pooled from the literature.
Lines come from different studies, so protocols differ. Several values in a cell are separate wells, animals, samples, runs or records. Numbers after ± are the reported error.

| SMILES | assay | system | setting | scale | quantity | value |
| --- | --- | --- | --- | --- | --- | --- |
| C[C@H]1C[C@H]2CSC(N)=N[C@@]2(c2nc(NC(=O)c3ccc(OC(F)F)cn3)cs2)CO1 | measured: total Aβ | healthy adults, plasma | 200 mg single dose, 48 h post-dose | relative to: placebo | percent change from baseline | -62% |
| c1ccc(-c2n[nH]cc2-c2ccnc3ccccc23)nc1 | kinase binding, competitor, MIB/MS competition, measured: CKA2 | Candida albicans cell lysate | 100 nM | relative to: DMSO | log2 fold change | 1.41 |
| N#CCC1CCN(c2nc(Nc3ccc(N4CCC(O)CC4)cc3)c3c(=O)[nH]ncc3n2)CC1 | Olink multiplex | human, serum | 20 mg, day 15, unit not given | relative to: baseline | GIF level change | 1.08 |
| Nc1ccn([C@H]2C[C@H](O)[C@@H](COP(=O)(O)OP(=O)(O)O)O2)c(=O)n1 | binding, MIDAS equilibrium dialysis LC-MS | A2AR-BRIL thermostabilized | concentration not given | relative to: no-protein control | log2 fold change | -0.626 |
| CN(C)C(=O)Oc1cccc([N+](C)(C)C)c1 | neuromuscular block reversal | rat | dose not given, 22.5 (unit not given), added: cisatracurium | relative to: T1 twitch | train-of-four ratio | 99.5 |
| CC(=O)Oc1cc2c(s1)CCN(C(C(=O)C1CC1)c1ccccc1F)C2 (centres unmarked) | platelet aggregation, light transmittance aggregometry | human, platelet-rich plasma | dose not given, 15 min, IPA above 90 %, added: TRAP 15 µM | relative to: patients | patients with IPA above threshold | 0% |
| CCCCCN1C[C@H](O)[C@@H](O)[C@H](O)[C@@H]1CO | RNA sequencing, measured: Hallmark interferon gamma genes | Hexb-/- mouse, hippocampus | 30 mg/kg/day | direction not given | genomic disease score | 0.35 |
| C[C@H](N)C(=O)O | binding, MIDAS equilibrium dialysis LC-MS | A2AR-BRIL thermostabilized | concentration not given | relative to: no-protein control | log2 fold change | -0.168 |
| CSCCNc1nc(SCCC(F)(F)F)nc2c1ncn2[C@@H]1O[C@H](COP(=O)(O)OP(=O)(O)C(Cl)(Cl)P(=O)(O)O)[C@@H](O)[C@H]1O | platelet aggregation, light transmission aggregometry | human patients, platelet-rich plasma | dose not given, 3 h, added: TRAP 15 µM |  | inhibition | 14.8 ± 19.9% |
| Cc1cc([C@H]2C[C@H]3[C@@H](C)SC(N)=N[C@@]3(c3ccc(F)cc3F)CO2)on1 | measured: Aβx-40 | wild-type mouse, brain | subcutaneous, 50 mg/kg, 3 h |  | brain Aβ40 level | 1.1 ng/g |
| N#Cc1ccc2c(-c3ccncc3)c(-c3ccc(F)cc3)nn2c1 | kinase binding, competitor, MIB/MS competition, measured: MCK1 | Candida albicans cell lysate | 1 µM | relative to: DMSO | log2 fold change | -0.161 |
| CC(C)c1c(C(=O)Nc2ccccc2)c(-c2ccccc2)c(-c2ccc(F)cc2)n1CC[C@@H](O)C[C@@H](O)CC(=O)O |  | cynomolgus monkey, male, serum | 40 mg/kg or 25 mg/kg, day 86, 2064 h |  | HDL-C | 46.4 mg/dL |
| OCC(O)c1ccc(O)c(O)c1 (racemic) | binding, MIDAS equilibrium dialysis LC-MS | A2AR-BRIL thermostabilized | concentration not given | relative to: no-protein control | log2 fold change | 0.114 |
| CC[C@@H]1[C@H](F)C(=O)N[C@@H]1COc1nccc2cc(C(N)=O)c(OC)cc12 | ATP-site probe binding, ActivX profiling, measured: MST4, YSK1 | THP-1 cell lysate | 0.04 mM, Lys2 site |  | inhibition | -3.8% |
| C[C@H](Oc1ccc(Br)cc1-c1ccon1)C(=O)O | muscle velocity recovery cycles | human, tibialis anterior muscle | 400 mg twice daily, multiple doses, frequency ramp, first response at 30 Hz | relative to: placebo | peak amplitude change | -5.52% |
| O=C1Nc2cc3[nH]nc(-c4ccncc4)c3cc2CN1Cc1ccccc1 | RECIST v1.1 | human, relapsed or refractory advanced solid tumours | intravenous, 6.4 mg/kg |  | progressive disease, best response | 78% |
| Nc1ccn([C@H]2C[C@H](O)[C@@H](COP(=O)(O)O)O2)c(=O)n1 | binding, MIDAS equilibrium dialysis LC-MS | A2AR-BRIL thermostabilized | concentration not given | relative to: no-protein control | log2 fold change | 0.234 |
| N#Cc1ccn2c(-c3ccncc3)c(-c3ccc(F)cc3)nc2c1 | kinase binding, competitor, MIB/MS competition, measured: CMK1 | Candida albicans cell lysate | 10 µM | relative to: DMSO | log2 fold change | -0.0172 |
| OC[C@H]1O[C@@H](c2ccc(Cl)c(Cc3ccc(O[C@H]4CCOC4)cc3)c2)[C@H](O)[C@@H](O)[C@@H]1O | fasting plasma glucose, exposure-response PK/PD model | type 2 diabetes patients | bootstrap median |  | typical Gmax | 0.218% |
| CC1(C)OCCn2c1nc1c(N3CCOCC3)nc(-c3cnc(N)nc3)nc12 | RNA sequencing, measured: HALLMARK_TGF_BETA_SIGNALING | MB002 tumour | concentration not given | relative to: vehicle, direction not given | GSEA enrichment score | 0.207 |
| O=C1CCc2ccc(OCCCCN3CCN(c4cccc(Cl)c4Cl)CC3)cc2N1 | treatment discontinuation, Cox regression | human patients, CYP2D6 IM/PM/UM | dose not given, 6 months, genetic phenotype only | relative to: CYP2D6 normal metabolizers | hazard ratio | 1.75 |
| COc1ncc(-c2nc3c(n2C(C)C)[C@H](c2ccc(Cl)cc2)N(c2cc(Cl)cn(C)c2=O)C3=O)c(OC)n1 | International Working Group criteria | human acute myeloid leukemia patients | dose not given, response CRi, all patients |  | best overall response | 7.7% |
| CC[C@H]1[C@@H](O)[C@@H]2[C@H](CC[C@]3(C)[C@@H]([C@H](C)CCC(=O)O)CC[C@@H]23)[C@@]2(C)CC[C@@H](O)C[C@@H]12 |  | C57BL/6J mouse, AMLN diet NASH model | dose not given, terminal |  | plasma AST | 210 ± 37 U/L |
| COc1cc2nccc(Oc3ccc(NC(=O)c4cc5c(n(-c6ccccc6)c4=O)CCCC5=O)nc3)c2cc1OC | Mantel-Haenszel | MOLM-13 luc/gfp xenograft, mice | diet, 0.013% in feed | relative to: control over treated | hazard ratio | 5.53 |
| Cc1cc(Nc2cc3ncccc3c(N[C@@H]3C[C@H]4CC[C@@H](C3)N4CCC#N)n2)n[nH]1 |  | moderate-severe ulcerative colitis patients | 270 mg, day 28, Modified Mayo | relative to: baseline, direction not given | change in endoscopic subscore | -0.1 |

| SMILES | assay | system | setting | scale | quantity | value |
| --- | --- | --- | --- | --- | --- | --- |
| COc1ccc(-c2cncc(N[C@@H](C)c3cccc(NC(=O)c4cncc(C)c4)c3)n2)cc1OC | measured: rno-miR-154-5p | rat SU5416/hypoxia model, lung | dose not given, unit not given | relative to: SU5416/hypoxia vehicle | delta delta Ct | -1.57 |
| N[C@H](C(=O)O)c1cc(O)cc(O)c1 | field recording | rat hippocampal slice CA3 | 50 µM, 10 min | relative to: baseline | spontaneous spike inter-event interval | 42.9 ± 4.6% |
| N#Cc1ccc2c(c1)[C@H]1CCCN(C(=O)c3ccc4[nH]cnc4c3)[C@H]1C2 |  | T2DM patients with overweight or obesity, plasma | oral, 80 mg, day 15 (360 h), multiple dosing, mean |  | fasting plasma glucose | 136 mg/dL |
| Cc1cc([C@H]2C[C@H]3[C@@H](CF)SC(N)=N[C@@]3(c3ccc(F)cc3F)CO2)on1 | measured: Aβx-40 | Mus musculus wild-type, cerebrospinal fluid | subcutaneous, 100 mg/kg, 14 h |  | Aβ40 level | 1.28 ng/mL |
| O=C1O[C@H]([C@@H](O)CO)C(O)=C1O | nitric oxide scavenging |  | 120 µM |  | inhibition | 43.6% |
| CC(c1cc2ccccc2s1)N(O)C(N)=O (centres unmarked) | measured: eicosapentaenoic acid | human whole blood | 3 µM, added: Escherichia coli |  | amount | 67100 ± 10700 pg/mL blood |
| N#CC[C@H](C1CCCC1)n1cc(-c2ncnc3[nH]ccc23)cn1 |  | mouse, human PBMC GvHD model, plasma | 50 mg/kg once daily, unit not given | relative to: vehicle | plasma TNF-alpha difference | -0.67 |
| N#Cc1ccc2c(c1)[C@H]1CCCN(C(=O)c3ccc4[nH]cnc4c3)[C@H]1C2 | measured: systolic blood pressure | human | 80 mg once daily, day 28, adjusted mean | relative to: placebo | change from baseline | -0.2 mmHg |
| O=C(O)CNC(=O)Cc1ccccc1 |  | ventricular cardiomyocytes, C57BL/6 mouse | dose not given, 0.04 s |  | sarcomere length | 1.72 µm |
| C=CCn1c(=O)c2cnc(Nc3ccc(N4CCN(C)CC4)cc3)nc2n1-c1ccc2c(n1)[C@@](O)(CC)CC2 |  | SUM149PT xenograft, BALB/c nude mice | oral, 80 mg/kg, day 33, once daily intermittent x 6 cycles |  | tumour growth inhibition | 91.4% |
| Cc1cnc(N2CC3(CCOCC3)C2)c(C(=O)Nc2ccc(C(=O)N3CCc4cc(C(=O)Nc5c(C)cccc5F)sc4-c4ccccc43)cc2)c1 |  | human, RSV infection, nasal wash | dose not given, ITT-IS population | relative to: placebo | inhibition of MCP3 AUC | 19% |
| Cc1coc([C@H]2C[C@H]3[C@@H](CF)SC(N)=N[C@@]3(c3ccc(F)cc3F)CO2)n1 | measured: Aβx-40 | wild-type mouse, brain | subcutaneous, 80 mg/kg, 9 h |  | brain Aβ40 level | 2.72 ng/g |
| CN[C@@H]1COc2c(S(=O)(=O)NC(=O)Nc3c4c(cc5c3CCC5)CCC4)cnn2C1 | measured: IL-18 | human participants, whole blood ex vivo | 150 mg single dose, 72 h, IL-18, circulating, adjusted for, added: LPS/ATP | relative to: baseline | inhibition | -4.2% |
| O=P(O)(O)C(Cl)(Cl)P(=O)(O)O | open field test | UT+/+ and UT-/- mice, sham | 23000 µg/mL |  | distance travelled | 30 m and 37 m and 31 m and 29 m |
| NC(=O)c1cnc2[nH]ccc2c1N[C@@H]1[C@@H]2CC3C[C@H]1C[C@@](O)(C3)C2 | flow cytometry, measured: CD4+ central memory T cells | Japanese healthy subjects, peripheral blood | oral, 30 mg twice daily, day 4 |  | change from baseline | -1.07% |
| CC1=CC(=O)CC(C)(C)[C@@]1(O)/C=C/C(C)=C\C(=O)O | RNA-seq, measured: AT1G04220 | Arabidopsis thaliana Col seedlings | dose not given | relative to: DMSO | log2 fold change | 4.3 |
| OC(CCN1CCCCC1)(c1ccccc1)C1CC2C=CC1C2 (centres unmarked) | resting-state EEG | healthy elderly humans | oral, 4 mg, eyes closed, LS mean | relative to: baseline | change in EEG Beta2-power Pz-O2 | -13.1% |
| O=C(O)COP(=O)(O)O | binding, MIDAS equilibrium dialysis LC-MS | A2AR-BRIL thermostabilized | concentration not given | relative to: no-protein control | log2 fold change | 0.0598 |
| Cc1noc(C)c1-c1cc(C(O)(c2ccccn2)c2ccccn2)c2nc(C3CC3)[nH]c2c1 | measured: CCR2 expression | human, peripheral blood | 3 mg, day 8, 1599 study |  | maximum inhibition | 43.2% |
| CC(C)(COP(=O)(O)OP(=O)(O)OC[C@H]1O[C@@H](n2cnc3c(N)ncnc32)[C@H](O)[C@@H]1OP(=O)(O)O)[C@@H](O)C(=O)NCCC(=O)NCCS | binding, MIDAS equilibrium dialysis LC-MS | A2AR-BRIL thermostabilized | concentration not given | relative to: no-protein control | log2 fold change | -0.818 |
| NCC(=O)Nc1cncc(-c2nn3c(=O)cc(N4CCNCC4)nc3s2)c1 | light transmission aggregometry | human, stable CAD on aspirin, platelets ex vivo | subcutaneous, 0.075 mg/kg, 24 h post-dose, mean, added: ADP 20 µM |  | inhibition of platelet aggregation | 4.08% |
| CC[C@@H](C)[C@H](N)C(=O)O | binding, MIDAS equilibrium dialysis LC-MS | A2AR-BRIL thermostabilized | concentration not given | relative to: no-protein control | log2 fold change | -0.128 |
| CC(C)NCC(O)c1ccc(O)c(O)c1 (centres unmarked) |  | ventricular cardiomyocytes, C57BL/6 mouse | dose not given, 0.008 s |  | sarcomere length | 1.72 µm |
| N=C(N)NCCC[C@H](N)C(=O)O | binding, MIDAS equilibrium dialysis LC-MS | A2AR-BRIL thermostabilized | concentration not given | relative to: no-protein control | log2 fold change | 0.0425 |
| O=C(COc1ccc(Cl)cc1)NC12CC(c3nnc([C@H]4C[C@@H](OC(F)(F)F)C4)o3)(C1)C2 |  | healthy human, PBMC | oral, 45 mg single dose, day 2, 24 h post-dose, median, added: sodium arsenite ex vivo | relative to: baseline | ATF4 protein change | -38.8% |

Repeated from above:
| SMILES | assay | system | setting | scale | quantity | value |
| --- | --- | --- | --- | --- | --- | --- |
| Nc1ccn([C@H]2C[C@H](O)[C@@H](COP(=O)(O)OP(=O)(O)O)O2)c(=O)n1 | binding, MIDAS equilibrium dialysis LC-MS | A2AR-BRIL thermostabilized | concentration not given | relative to: no-protein control | log2 fold change | -0.626 |
| CN(C)C(=O)Oc1cccc([N+](C)(C)C)c1 | neuromuscular block reversal | rat | dose not given, 22.5 (unit not given), added: cisatracurium | relative to: T1 twitch | train-of-four ratio | 99.5 |
| CC(=O)Oc1cc2c(s1)CCN(C(C(=O)C1CC1)c1ccccc1F)C2 (centres unmarked) | platelet aggregation, light transmittance aggregometry | human, platelet-rich plasma | dose not given, 15 min, IPA above 90 %, added: TRAP 15 µM | relative to: patients | patients with IPA above threshold | 0% |
| CCCCCN1C[C@H](O)[C@@H](O)[C@H](O)[C@@H]1CO | RNA sequencing, measured: Hallmark interferon gamma genes | Hexb-/- mouse, hippocampus | 30 mg/kg/day | direction not given | genomic disease score | 0.35 |
